Published values collected from several papers.
Lines come from different studies, so protocols differ.

SMILES	system	setting	AUC(0-tau)
CCCCOCCOc1ccc(-c2ccc3c(c2)/C=C(/C(=O)Nc2ccc([S@@+]([O-])Cc4cncn4CCC)cc2)CCCN3CC(C)C)cc1	human, mild hepatic impairment, plasma	oral, 150 mg, day 1, geometric mean	4560 ng·h/mL
CC(C)NC(=O)COc1cccc(-c2nc(Nc3ccc4[nH]ncc4c3)c3ccccc3n2)c1	human male, plasma	oral, 200 mg, day 5, fed, alone, geometric mean	8490 ng·h/mL
COC[C@@H](c1ccc(C(F)(F)F)cc1)N1CCN(C2(C)CCN(C(=O)c3c(C)ncnc3C)CC2)C[C@@H]1C	human	oral, 5 mg once daily, steady state, population PK, together with: ritonavir	1170 ng·h/mL
O=C(O)CCC(=O)O.[2H]C([2H])([2H])Oc1cc(C)c2[nH]ccc2c1CN1CC[C@@H](C2CC2)C[C@H]1c1ccc(C(=O)O)cc1	human, plasma	100 mg twice daily, day 10, multiple ascending dose, geometric mean	46100 ng·h/mL
CCOc1c([C@H](C)n2nc(C)c3c(N)ncnc32)cc(Cl)c(F)c1[C@@H]1CNC(=O)C1	human, B-cell malignancies, plasma	oral, 30 mg, day 15, geometric mean	18.7 µM·h
Cc1noc(C)c1-c1cc(C(O)(c2ccccn2)c2ccccn2)c2nc(C3CC3)[nH]c2c1	human patients, plasma	oral, 1.4 mg, cycle 1 day 8, monotherapy	1840 ng·h/mL
Cc1ncnc2c1ccn2[C@@H]1C[C@H](Oc2cc(C(F)F)c(F)c3c2CNCC3)[C@@H](O)[C@H]1O	human	4 mg twice daily, multiple dose, geometric mean	437 ng·h/mL
CCN1CCN(Cc2ccc(Nc3ncc(F)c(-c4cc(F)c5nc6n(c5c4)[C@H](C)CCC6)n3)nc2)CC1	human, plasma	400 mg multiple dosing, mean	7690 ng·h/mL

Excerpt of the above:
SMILES	system	setting	AUC(0-tau)
CCN1CCN(Cc2ccc(Nc3ncc(F)c(-c4cc(F)c5nc6n(c5c4)[C@H](C)CCC6)n3)nc2)CC1	human, plasma	400 mg multiple dosing, mean	7690 ng·h/mL
